{"data": "Published values collected from several papers", "BCHE": "Cholinesterase (BCHE, Homo sapiens, UniProt P06276)", "note": "Compare with care: the assays were run in different laboratories. Several values in a cell are separate wells, animals, samples, runs or records. Numbers after ± are the reported error.", "UniProt P06276, sequence (whole entry, looked up)": "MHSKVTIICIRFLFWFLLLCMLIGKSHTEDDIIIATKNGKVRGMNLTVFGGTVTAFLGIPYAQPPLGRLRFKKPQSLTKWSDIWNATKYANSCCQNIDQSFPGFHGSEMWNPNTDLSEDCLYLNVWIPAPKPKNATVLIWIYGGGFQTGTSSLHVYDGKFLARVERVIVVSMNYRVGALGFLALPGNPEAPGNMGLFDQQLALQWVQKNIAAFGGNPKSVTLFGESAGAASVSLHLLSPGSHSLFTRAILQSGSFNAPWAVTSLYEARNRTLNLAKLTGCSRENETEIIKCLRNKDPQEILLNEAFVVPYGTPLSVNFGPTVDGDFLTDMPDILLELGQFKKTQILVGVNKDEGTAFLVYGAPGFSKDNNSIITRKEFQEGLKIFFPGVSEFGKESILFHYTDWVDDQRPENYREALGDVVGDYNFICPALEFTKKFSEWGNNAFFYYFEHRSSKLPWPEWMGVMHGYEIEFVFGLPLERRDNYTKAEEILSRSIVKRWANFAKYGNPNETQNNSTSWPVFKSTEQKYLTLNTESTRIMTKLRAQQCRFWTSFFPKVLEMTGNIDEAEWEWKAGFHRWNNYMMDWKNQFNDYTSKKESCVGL", "UniProt Q01959, sequence (whole entry, looked up)": "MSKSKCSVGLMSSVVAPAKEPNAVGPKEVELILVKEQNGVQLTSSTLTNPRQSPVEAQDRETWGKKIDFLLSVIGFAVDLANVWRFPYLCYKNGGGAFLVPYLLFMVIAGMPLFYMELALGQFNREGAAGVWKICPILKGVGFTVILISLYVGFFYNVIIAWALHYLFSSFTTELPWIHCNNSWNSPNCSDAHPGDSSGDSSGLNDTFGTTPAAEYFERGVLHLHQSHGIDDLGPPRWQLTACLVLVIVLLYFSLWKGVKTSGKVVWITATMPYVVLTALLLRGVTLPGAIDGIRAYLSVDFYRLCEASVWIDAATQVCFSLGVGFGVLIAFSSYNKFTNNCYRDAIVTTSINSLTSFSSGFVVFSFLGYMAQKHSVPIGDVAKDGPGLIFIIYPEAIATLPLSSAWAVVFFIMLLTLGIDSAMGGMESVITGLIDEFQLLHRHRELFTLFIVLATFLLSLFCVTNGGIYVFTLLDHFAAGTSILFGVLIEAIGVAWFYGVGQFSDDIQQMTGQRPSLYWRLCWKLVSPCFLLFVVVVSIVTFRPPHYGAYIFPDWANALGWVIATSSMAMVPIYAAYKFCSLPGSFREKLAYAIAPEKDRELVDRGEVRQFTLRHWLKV", "UniProt P18825, sequence (whole entry, looked up)": "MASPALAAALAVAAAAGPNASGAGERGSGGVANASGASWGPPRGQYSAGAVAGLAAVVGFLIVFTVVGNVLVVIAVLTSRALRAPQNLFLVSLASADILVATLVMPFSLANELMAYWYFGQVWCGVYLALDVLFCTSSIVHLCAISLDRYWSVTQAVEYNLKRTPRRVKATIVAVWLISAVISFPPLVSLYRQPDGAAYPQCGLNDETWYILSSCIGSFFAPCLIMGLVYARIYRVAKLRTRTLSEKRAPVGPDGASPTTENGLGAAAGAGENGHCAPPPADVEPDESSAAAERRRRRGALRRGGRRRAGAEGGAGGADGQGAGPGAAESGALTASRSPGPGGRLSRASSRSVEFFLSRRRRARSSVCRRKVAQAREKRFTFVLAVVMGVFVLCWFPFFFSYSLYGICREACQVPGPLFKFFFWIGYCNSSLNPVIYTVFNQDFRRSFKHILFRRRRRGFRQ", "UniProt P43681, sequence (whole entry, looked up)": "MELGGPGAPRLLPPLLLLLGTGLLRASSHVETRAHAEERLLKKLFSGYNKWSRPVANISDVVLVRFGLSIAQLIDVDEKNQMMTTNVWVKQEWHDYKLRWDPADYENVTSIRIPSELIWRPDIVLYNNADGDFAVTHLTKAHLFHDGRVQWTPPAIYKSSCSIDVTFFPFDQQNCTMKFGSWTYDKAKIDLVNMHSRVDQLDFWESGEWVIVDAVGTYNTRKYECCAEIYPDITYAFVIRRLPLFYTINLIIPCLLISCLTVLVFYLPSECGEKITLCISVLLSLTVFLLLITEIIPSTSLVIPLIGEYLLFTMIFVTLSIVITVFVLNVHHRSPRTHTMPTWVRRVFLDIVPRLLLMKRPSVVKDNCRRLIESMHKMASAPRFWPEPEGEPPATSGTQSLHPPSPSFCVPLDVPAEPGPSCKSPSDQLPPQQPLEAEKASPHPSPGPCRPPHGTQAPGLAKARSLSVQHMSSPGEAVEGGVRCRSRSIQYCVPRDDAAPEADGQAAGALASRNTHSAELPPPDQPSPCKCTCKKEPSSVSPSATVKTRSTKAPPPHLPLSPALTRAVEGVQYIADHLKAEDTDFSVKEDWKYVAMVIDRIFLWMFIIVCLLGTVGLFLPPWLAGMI", "UniProt P45880, sequence (whole entry, looked up)": "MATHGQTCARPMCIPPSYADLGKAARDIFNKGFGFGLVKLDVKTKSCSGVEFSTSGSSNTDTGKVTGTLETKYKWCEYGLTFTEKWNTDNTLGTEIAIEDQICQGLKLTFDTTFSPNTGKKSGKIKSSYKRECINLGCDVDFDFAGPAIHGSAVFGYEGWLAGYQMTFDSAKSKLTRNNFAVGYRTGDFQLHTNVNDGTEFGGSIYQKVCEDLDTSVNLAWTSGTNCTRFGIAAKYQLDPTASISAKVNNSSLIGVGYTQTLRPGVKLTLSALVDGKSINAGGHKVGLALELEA", "UniProt Q02156, sequence (whole entry, looked up)": "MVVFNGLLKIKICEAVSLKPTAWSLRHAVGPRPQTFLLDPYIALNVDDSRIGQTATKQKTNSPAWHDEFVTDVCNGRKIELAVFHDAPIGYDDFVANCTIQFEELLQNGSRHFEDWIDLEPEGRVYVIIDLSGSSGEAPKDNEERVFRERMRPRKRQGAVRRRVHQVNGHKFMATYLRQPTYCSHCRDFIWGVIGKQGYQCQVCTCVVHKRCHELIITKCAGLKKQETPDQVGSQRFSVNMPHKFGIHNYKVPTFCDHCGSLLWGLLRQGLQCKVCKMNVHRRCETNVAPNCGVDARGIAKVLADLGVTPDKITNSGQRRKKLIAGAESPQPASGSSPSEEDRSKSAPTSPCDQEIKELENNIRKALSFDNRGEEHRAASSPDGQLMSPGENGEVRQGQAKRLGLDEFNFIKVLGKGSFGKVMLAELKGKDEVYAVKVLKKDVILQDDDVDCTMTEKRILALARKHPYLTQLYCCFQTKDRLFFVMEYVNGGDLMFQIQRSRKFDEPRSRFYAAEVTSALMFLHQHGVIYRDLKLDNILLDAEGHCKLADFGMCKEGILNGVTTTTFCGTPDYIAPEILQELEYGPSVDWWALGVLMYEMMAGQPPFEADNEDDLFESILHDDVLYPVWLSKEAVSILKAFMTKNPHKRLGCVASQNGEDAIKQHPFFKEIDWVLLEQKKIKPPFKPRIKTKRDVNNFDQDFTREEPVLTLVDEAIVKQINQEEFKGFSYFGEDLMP", "UniProt P17787, sequence (whole entry, looked up)": "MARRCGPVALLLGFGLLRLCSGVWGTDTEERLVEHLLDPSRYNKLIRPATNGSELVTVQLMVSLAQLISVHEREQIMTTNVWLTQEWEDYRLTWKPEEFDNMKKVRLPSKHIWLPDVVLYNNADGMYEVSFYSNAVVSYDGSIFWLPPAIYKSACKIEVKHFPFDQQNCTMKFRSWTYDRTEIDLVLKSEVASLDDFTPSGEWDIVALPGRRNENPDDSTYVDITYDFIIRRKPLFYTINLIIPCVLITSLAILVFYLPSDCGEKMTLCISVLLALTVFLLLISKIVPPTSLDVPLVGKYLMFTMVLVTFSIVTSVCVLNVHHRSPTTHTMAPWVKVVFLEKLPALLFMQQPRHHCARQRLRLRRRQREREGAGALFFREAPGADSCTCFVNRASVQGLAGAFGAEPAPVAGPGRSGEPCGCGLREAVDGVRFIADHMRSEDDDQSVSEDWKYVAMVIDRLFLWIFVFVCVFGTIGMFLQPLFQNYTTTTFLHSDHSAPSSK", "UniProt P49146, sequence (whole entry, looked up)": "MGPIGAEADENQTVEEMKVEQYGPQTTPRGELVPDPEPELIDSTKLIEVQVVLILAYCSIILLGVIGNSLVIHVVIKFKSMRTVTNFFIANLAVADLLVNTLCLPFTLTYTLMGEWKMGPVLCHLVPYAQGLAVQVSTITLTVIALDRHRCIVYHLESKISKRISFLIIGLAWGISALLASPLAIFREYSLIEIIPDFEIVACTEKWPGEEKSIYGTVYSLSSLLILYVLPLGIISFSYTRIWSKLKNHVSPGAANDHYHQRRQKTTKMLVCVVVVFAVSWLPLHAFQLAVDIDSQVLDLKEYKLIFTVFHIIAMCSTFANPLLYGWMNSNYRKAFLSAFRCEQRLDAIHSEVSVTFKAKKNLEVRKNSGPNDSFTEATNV", "UniProt Q92743, sequence (whole entry, looked up)": "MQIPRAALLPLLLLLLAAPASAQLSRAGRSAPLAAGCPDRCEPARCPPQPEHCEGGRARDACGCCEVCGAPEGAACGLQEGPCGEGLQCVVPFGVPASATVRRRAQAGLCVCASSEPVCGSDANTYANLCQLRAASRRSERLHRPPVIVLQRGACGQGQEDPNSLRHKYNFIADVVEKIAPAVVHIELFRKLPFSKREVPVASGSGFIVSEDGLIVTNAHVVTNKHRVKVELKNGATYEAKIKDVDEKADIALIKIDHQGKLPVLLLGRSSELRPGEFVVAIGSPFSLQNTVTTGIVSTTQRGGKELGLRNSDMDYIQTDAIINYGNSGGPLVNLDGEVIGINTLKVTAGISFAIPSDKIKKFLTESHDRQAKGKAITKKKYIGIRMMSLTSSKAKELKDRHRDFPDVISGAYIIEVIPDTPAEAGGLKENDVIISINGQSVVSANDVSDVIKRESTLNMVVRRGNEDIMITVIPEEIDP"}
{"SMILES": "CN[C@]1(c2ccccc2Cl)CCCCC1=O", "tested on": "Neuronal acetylcholine receptor; alpha4/beta2 (Homo sapiens, UniProt P17787+P43681)", "test": "radioligand binding, agonist, radioligand displacement", "setting": "30 µM", "measurement": "inhibition", "result": "-9%"}
{"SMILES": "Oc1ccc2c3c1O[C@H]1[C@@H](O)CC[C@@]4(O)[C@@H](C2)N(CC2CCC2)CC[C@]314", "tested on": "Probable G-protein coupled receptor 27 (Homo sapiens, UniProt Q9NS67)", "test": "β-arrestin recruitment, TANGO luminescence, measured: GPR27", "setting": "concentration not given", "scale": "reference: basal luminescence", "measurement": "log2 fold change", "result": -0.119}
{"SMILES": "CN(C(=O)n1cnc(-c2ccc[n+]([O-])c2)c1)C1CCCCC1", "tested on": "Type-1 angiotensin II receptor (AGTR1, Homo sapiens, UniProt P30556)", "test": "radioligand binding, inhibitor", "setting": "10 µM", "measurement": "inhibition", "result": "6%"}
{"SMILES": "Cc1sc2c(c1C)C(c1ccc(Cl)cc1)=N[C@@H](CC(=O)OC(C)(C)C)c1nnc(C)n1-2", "tested on": "W12E, differentiated", "test": "CUT&RUN-qPCR, measured: HPV origin", "measurement": "53BP1 association", "result": "increased"}
{"SMILES": "CC(C)(C)C1CCN(C(=O)n2ncc(C(O)(c3ccccc3)c3ccccc3)n2)CC1", "tested on": "BCHE", "setting": "concentration not given, Triton", "measurement": "efficacy", "result": "-67.9 ± 16.2%"}
{"SMILES": "O=C(Nc1cccnn1)N1CCC(=Cc2cccc(Oc3ccc(C(F)(F)F)cn3)c2)CC1", "tested on": "Abhydrolase domain-containing protein 11 (Rattus norvegicus, UniProt D3ZXK4)", "test": "probe labelling, inhibitor, competitive ABPP with azido-FP probe, measured: Abhd11", "test system": "rat brain soluble fraction", "setting": "0.1 µM", "measurement": "inhibition", "result": "73%"}
{"SMILES": "C[C@H]1CN(c2n[nH]c3nc(N[C@H]4CC[C@H](NS(=O)(=O)CCC(F)(F)F)CC4)ncc23)CCO1", "tested on": "Non-selective voltage-gated ion channel VDAC2 (Homo sapiens, UniProt P45880)", "test": "Kinobeads competition, measured: VDAC2", "setting": "20 µM, unit not given", "scale": "reference: vehicle", "measurement": "remaining binding", "result": 1.2}
{"SMILES": "O=C(c1ccc(Cl)cc1)N1CCN2C(=O)N(OC(=O)N3CCOc4ccccc43)C(=O)C2C1 (stereo not drawn)", "tested on": "Serine protease HTRA1 (Homo sapiens, UniProt Q92743)", "test": "enzyme activity, inhibitor, MS-based ABPP", "test system": "SW-620 conditioned medium", "setting": "10 µM, 1 h, 37 °C", "scale": "reference: compound over DMSO, lower = stronger inhibition", "measurement": "median ratio", "result": 1.48}
{"SMILES": "O=C(Nc1cnccc1Cl)N1CCN(Cc2ccc3c(c2)OC(F)(F)O3)CC1", "tested on": "Alpha-2C adrenergic receptor (ADRA2C, Homo sapiens, UniProt P18825)", "test": "binding", "setting": "10 µM, with: [3H]rauwolscine", "measurement": "inhibition", "result": "22%"}
{"SMILES": "c1ccc2cc([C@]34CNC[C@H]3C4)ccc2c1", "tested on": "Sodium-dependent dopamine transporter (SLC6A3, Homo sapiens, UniProt Q01959)", "test": "inhibitor, [3H]dopamine uptake", "setting": "100 pM", "scale": "reference: no inhibitor", "measurement": "dopamine uptake", "result": "127% and 105% and 83%"}
{"SMILES": "COC1=CC(=O)c2c(O)c3c(c(O)c2C1=O)O[C@]1(Oc2c(cc4cc(C)oc(=O)c4c2O)[C@@H](O)[C@@H]1O)[C@@H]3O", "tested on": "Staphylococcus aureus", "test": "RNA-Seq, measured: NADH dehydrogenase subunit gene", "test system": "MRSA ATCC 433000", "setting": "MIC, 12 h", "scale": "reference: untreated", "measurement": "log2 fold change", "result": 1.36}
{"SMILES": "C[N+](C)(CCOc1ccccc1)Cc1cccs1.[I-]", "tested on": "BCHE", "setting": "concentration not given, Triton", "measurement": "efficacy", "result": "-80.2 ± 9.96%"}
{"SMILES": "CC[C@H](C)[C@H](NC(=O)CNC(=O)[C@@H](N)CCCCN)C(=O)N[C@@H](CC(C)C)C(=O)N[C@@H](CCCCN)C(=O)N[C@@H](CCCNC(=N)N)C(=O)N[C@@H](CCC(=O)O)C(=O)N[C@@H](CCCCN)C(=O)N[C@@H](CCCNC(=N)N)C(=O)N[C@@H](CC(C)C)C(=O)N[C@@H](CCCNC(=N)N)C(=O)N[C@@H](CCCNC(=N)N)C(=O)N[C@@H](CCCCN)C(=O)N[C@@H](CC(N)=O)C(=O)N[C@H](C(=O)N[C@@H](Cc1c[nH]cn1)C(=O)N[C@@H](Cc1c[nH]c2ccccc12)C(=O)N1CCC[C@H]1C(=O)N[C@@H](CCC(=O)O)C(=O)N[C@@H](CCC(=O)O)C(=O)NCC(=O)N[C@@H](CCCCN)C(=O)N[C@@H](CC(C)C)C(=O)N[C@@H](CCCNC(=N)N)C(=O)N[C@@H](CCC(=O)O)C(=O)N[C@@H](Cc1ccc(O)cc1)C(=O)N[C@@H](Cc1ccccc1)C(=O)N[C@@H](Cc1ccc(O)cc1)C(=O)N[C@@H](Cc1ccccc1)C(=O)N[C@@H](CCC(=O)O)C(=O)N[C@@H](CC(C)C)C(=O)N[C@@H](CC(=O)O)C(=O)N[C@@H](CCC(=O)O)C(=O)N[C@@H](C)C(=O)N[C@@H](CCC(=O)O)C(=O)N[C@@H](CCCNC(=N)N)C(=O)N[C@H](C(=O)N[C@@H](CC(N)=O)C(=O)N[C@H](C(=O)O)C(C)C)C(C)C)C(C)C", "tested on": "HeLa and HEK-293T cells", "test": "phosphatase bead binding, competitive inhibitor, PIB pulldown iBAQ LC-MS/MS, measured: SLMAP", "setting": "concentration not given", "scale": "reference: untreated control", "measurement": "log2 fold change", "result": -0.0128}
{"SMILES": "Nc1c2c(nc3ccccc13)CCCC2O.O=C(O)/C=C\\C(=O)O (stereo not drawn)", "tested on": "BCHE", "setting": "concentration not given, Triton", "measurement": "efficacy", "result": "-85.9 ± 5.17%"}
{"SMILES": "CC(C)(CO)Cc1cc(C(C)(C)C)c(O)c(C(C)(C)C)c1", "tested on": "Plasmodium falciparum", "test system": "3D7", "measurement": "IC50", "result": "3.98 µM"}
{"SMILES": "CN1CCc2cc(Cl)c(O)cc2[C@@H](c2cccc3c2OCC3)C1", "tested on": "BCHE", "setting": "concentration not given, Triton", "measurement": "efficacy", "result": "-118 ± 19.2%"}
{"SMILES": "CNCCCN1c2ccccc2CCc2ccccc21", "tested on": "Plasmodium falciparum", "test system": "D10", "measurement": "IC50", "result": "10 µM"}
{"SMILES": "Br.CN1CCC[C@@H]1Cc1c[nH]c2ccc(CCS(=O)(=O)c3ccccc3)cc12", "tested on": "BCHE", "setting": "concentration not given, Triton", "measurement": "efficacy", "result": "-76.3 ± 22.7%"}
{"SMILES": "COc1ccc(N2C(=O)N(c3c(C)cccc3Cl)Cc3cnc(Nc4ccc(C5CCN(C)CC5)cc4OC)nc32)nc1", "tested on": "Protein kinase C epsilon type (PRKCE, Homo sapiens, UniProt Q02156)", "test": "kinase activity, inhibitor", "setting": "0.5 µM, kinase PKC-EPSILON", "measurement": "inhibition", "result": "1.54%"}
{"SMILES": "CCC(C)CNCC(=O)N1CCc2sccc2C1COc1cccc(C)c1.Cl (stereo not drawn)", "tested on": "BCHE", "setting": "concentration not given, Triton", "measurement": "efficacy", "result": "-107 ± 9.04%"}
{"SMILES": "CN1CCN(c2cc(-c3ccncc3)c(-c3ccc4ccccc4c3)nn2)CC1", "tested on": "Neuropeptide Y receptor type 2 (NPY2R, Homo sapiens, UniProt P49146)", "test": "antagonist, FLIPR", "setting": "10 µM", "measurement": "inhibition", "result": "-1.6%"}
